Measured values gathered from unrelated publications.
Parts stem from different laboratories: compare values within a part only. Several values in a cell are separate wells, animals, samples, runs or records.
Sequence of UniProt O95819 (whole entry, looked up): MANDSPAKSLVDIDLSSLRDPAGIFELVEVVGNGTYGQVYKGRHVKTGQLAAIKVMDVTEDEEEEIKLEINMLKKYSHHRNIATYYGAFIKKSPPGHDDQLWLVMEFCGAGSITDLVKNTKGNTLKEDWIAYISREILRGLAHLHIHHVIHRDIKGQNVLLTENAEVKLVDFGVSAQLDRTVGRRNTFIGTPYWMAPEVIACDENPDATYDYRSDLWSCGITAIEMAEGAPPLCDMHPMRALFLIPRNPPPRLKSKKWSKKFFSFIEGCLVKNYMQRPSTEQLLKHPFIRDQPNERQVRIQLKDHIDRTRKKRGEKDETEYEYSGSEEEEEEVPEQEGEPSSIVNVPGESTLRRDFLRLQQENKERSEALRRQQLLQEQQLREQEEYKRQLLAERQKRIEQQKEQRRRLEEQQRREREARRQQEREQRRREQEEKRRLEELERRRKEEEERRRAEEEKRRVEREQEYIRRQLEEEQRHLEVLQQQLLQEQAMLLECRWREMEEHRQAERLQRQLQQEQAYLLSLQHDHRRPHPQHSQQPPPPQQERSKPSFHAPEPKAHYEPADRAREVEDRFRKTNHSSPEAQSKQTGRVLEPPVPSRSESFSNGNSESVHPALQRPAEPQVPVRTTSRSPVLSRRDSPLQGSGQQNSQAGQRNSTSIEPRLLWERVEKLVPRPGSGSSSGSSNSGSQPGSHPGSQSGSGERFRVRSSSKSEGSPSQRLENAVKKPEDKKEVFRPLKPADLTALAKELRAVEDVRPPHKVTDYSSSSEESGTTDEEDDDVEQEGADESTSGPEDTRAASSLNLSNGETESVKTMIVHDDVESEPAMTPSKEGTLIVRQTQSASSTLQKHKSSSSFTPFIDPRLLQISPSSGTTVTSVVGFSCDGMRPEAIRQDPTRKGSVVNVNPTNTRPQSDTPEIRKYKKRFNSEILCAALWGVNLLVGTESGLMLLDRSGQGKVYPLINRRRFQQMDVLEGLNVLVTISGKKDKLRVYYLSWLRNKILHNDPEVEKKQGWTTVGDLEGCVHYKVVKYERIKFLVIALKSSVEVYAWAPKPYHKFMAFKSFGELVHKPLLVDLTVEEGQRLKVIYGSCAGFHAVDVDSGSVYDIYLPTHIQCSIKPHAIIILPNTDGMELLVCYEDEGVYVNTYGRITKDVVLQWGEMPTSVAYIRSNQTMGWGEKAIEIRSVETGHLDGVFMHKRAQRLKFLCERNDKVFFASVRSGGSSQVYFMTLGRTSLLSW
Sequence of UniProt P35367 (whole entry, looked up): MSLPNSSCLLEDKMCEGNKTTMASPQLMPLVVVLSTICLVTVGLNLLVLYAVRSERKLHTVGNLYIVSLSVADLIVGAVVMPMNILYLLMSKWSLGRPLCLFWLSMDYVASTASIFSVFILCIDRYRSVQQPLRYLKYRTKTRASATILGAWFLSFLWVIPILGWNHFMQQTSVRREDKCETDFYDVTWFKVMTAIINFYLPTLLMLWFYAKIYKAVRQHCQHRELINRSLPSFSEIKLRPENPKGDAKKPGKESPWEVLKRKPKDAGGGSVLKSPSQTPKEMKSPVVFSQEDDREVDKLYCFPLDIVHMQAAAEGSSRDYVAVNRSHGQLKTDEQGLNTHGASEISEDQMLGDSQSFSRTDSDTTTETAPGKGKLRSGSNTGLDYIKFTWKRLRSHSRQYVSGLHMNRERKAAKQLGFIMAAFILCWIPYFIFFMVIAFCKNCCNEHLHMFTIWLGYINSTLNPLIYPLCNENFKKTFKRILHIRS
Sequence of UniProt Q96RI0 (whole entry, looked up): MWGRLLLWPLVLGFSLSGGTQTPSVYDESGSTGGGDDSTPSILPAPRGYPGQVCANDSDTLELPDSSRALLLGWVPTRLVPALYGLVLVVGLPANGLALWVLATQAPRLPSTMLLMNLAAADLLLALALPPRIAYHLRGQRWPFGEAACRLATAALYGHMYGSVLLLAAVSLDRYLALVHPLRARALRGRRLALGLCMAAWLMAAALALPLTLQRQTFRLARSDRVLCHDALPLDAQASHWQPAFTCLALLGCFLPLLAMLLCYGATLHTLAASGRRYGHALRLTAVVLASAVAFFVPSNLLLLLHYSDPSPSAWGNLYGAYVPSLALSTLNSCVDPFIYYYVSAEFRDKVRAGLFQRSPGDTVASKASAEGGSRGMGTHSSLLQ
Sequence of UniProt O14936 (whole entry, looked up): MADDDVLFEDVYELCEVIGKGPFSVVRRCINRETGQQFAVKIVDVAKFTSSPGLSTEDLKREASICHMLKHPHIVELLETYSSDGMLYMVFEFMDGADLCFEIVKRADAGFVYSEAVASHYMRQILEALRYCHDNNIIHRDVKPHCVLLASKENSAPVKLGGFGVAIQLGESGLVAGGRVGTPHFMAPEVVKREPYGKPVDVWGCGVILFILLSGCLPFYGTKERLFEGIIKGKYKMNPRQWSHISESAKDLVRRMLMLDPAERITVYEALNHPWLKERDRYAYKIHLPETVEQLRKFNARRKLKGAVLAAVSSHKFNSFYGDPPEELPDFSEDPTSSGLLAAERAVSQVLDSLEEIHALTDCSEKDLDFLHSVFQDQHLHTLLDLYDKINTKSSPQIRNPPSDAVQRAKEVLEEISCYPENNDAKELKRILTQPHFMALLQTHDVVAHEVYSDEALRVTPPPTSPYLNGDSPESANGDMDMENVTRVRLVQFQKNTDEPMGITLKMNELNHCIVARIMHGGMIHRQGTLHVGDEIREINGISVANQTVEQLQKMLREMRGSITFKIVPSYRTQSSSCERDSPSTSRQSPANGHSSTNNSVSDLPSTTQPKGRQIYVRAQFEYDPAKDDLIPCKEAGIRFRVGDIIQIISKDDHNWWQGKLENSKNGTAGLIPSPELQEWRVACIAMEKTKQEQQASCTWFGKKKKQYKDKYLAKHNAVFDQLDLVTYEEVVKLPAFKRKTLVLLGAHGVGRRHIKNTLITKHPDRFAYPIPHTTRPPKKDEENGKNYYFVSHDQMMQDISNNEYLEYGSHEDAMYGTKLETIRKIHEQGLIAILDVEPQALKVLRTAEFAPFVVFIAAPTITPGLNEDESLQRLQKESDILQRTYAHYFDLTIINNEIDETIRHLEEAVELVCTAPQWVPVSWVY
Sequence of UniProt Q9HAZ1 (whole entry, looked up): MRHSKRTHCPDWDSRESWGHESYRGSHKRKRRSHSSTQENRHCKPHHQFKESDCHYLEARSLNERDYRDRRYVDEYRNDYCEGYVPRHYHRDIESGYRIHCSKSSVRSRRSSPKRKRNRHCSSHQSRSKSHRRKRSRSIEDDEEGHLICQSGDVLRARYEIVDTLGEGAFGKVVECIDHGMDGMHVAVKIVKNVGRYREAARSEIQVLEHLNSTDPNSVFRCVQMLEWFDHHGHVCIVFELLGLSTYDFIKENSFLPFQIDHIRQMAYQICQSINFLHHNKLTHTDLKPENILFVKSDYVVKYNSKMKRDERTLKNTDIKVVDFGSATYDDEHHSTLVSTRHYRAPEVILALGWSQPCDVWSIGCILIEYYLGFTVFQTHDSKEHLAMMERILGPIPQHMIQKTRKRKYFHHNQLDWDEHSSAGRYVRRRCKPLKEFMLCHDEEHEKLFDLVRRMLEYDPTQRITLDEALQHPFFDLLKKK
Sequence of UniProt Q8TDS4 (whole entry, looked up): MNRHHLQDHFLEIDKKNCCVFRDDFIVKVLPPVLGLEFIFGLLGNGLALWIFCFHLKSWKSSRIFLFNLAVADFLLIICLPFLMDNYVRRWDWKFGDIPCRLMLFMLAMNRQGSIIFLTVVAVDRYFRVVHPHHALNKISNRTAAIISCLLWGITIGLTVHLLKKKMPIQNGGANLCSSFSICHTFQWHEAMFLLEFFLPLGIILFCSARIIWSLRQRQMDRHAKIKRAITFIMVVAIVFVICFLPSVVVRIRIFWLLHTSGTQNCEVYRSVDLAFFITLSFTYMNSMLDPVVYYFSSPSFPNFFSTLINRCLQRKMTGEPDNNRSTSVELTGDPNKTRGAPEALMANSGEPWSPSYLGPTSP

Set 1
SMILES: C=CCc1ccc(O)c(-c2cc(CC=C)ccc2O)c1
Effect on: chloride current
Method: whole-cell voltage clamp
ANO1 del476-501/F807A: Anoctamin-1 (ANO1, Homo sapiens, UniProt Q5XXA6, del476-501/F807A)
Sequence of UniProt Q5XXA6 (whole entry, unmodified, looked up): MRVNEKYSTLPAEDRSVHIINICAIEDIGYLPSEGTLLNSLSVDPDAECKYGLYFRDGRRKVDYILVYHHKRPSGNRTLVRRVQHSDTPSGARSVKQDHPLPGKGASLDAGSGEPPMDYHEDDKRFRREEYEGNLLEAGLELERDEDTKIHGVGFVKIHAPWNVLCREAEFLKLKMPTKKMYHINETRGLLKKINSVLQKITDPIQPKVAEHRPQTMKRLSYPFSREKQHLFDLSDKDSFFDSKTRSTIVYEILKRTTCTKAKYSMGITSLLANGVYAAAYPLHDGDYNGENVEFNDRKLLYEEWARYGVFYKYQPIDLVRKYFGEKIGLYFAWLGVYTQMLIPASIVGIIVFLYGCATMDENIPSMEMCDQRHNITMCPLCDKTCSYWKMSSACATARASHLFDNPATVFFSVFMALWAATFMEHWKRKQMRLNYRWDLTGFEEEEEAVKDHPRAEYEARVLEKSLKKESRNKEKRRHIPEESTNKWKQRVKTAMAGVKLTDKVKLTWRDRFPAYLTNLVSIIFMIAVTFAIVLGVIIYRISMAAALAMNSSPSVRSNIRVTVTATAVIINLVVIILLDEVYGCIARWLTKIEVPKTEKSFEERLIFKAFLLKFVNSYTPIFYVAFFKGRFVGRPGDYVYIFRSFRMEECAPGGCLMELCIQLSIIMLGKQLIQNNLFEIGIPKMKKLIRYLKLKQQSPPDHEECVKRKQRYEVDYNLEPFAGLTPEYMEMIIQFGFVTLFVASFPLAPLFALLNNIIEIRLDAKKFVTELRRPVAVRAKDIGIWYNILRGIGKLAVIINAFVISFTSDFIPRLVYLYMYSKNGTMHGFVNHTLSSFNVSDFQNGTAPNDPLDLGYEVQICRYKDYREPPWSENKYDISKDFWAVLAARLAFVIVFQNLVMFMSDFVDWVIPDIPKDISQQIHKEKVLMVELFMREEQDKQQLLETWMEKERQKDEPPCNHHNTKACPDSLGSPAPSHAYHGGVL
ANO1 D383A/del476-501: Anoctamin-1 (ANO1, Homo sapiens, UniProt Q5XXA6, D383A/del476-501)
For ANO1 del476-501/F807A; inhibitor; mutant F781A at 100 mV, with: 300 nM Ca2+: IC50 read 21.3 µM.
Anoctamin-1 (ANO1, Homo sapiens, UniProt Q5XXA6, del476-501/R541I); inhibitor; R515I mutant at 100 mV — IC50: 134 µM.
It gave 13.9 µM for IC50 (Anoctamin-1 (ANO1, Homo sapiens, UniProt Q5XXA6, del476-501/E650A); membrane voltage 40 mV).
The IC50 was 128 µM (Anoctamin-1 (ANO1, Homo sapiens, UniProt Q5XXA6, del476-501/E649K); inhibitor; mutant E623K).
For ANO1 D383A/del476-501; membrane voltage -80 mV: IC50 read 37.3 µM.
The IC50 was 24.8 µM (Anoctamin-1 (ANO1, Homo sapiens, UniProt Q5XXA6, del476-501/F646A); membrane voltage 80 mV).
Anoctamin-1 (ANO1, Homo sapiens, UniProt Q5XXA6, del476-501/R561A); membrane voltage 20 mV — IC50: 22.5 µM.
Anoctamin-1 (ANO1, Homo sapiens, UniProt Q5XXA6, del476-501/F627A); membrane voltage 60 mV — IC50: 23.6 µM.
ANO1 D383A/del476-501; membrane voltage -20 mV — IC50: 23.8 µM.
Anoctamin-1 (ANO1, Homo sapiens, UniProt Q5XXA6, del476-501/R541K); inhibitor; R515K mutant at 40 mV — IC50: 18.5 µM.
The IC50 was 18.1 µM (Anoctamin-1 (ANO1, Homo sapiens, UniProt Q5XXA6, del476-501); membrane voltage 20 mV, with: 300 nM Ca2+).
It gave 56.9 µM for IC50 (Anoctamin-1 (ANO1, Homo sapiens, UniProt Q5XXA6, del476-501/E649D); inhibitor; E623D mutant at 100 mV).
It gave 25.4 µM for IC50 (Anoctamin-1 (ANO1, Homo sapiens, UniProt Q5XXA6, del476-501/F623A); membrane voltage 100 mV).
It gave 99 µM for IC50 (Anoctamin-1 (ANO1, Homo sapiens, UniProt Q5XXA6, del476-501/M544A); inhibitor; mutant M518A).
It gave 18.9 µM for IC50 (ANO1 del476-501/F807A; membrane voltage 40 mV).
Anoctamin-1 (ANO1, Homo sapiens, UniProt Q5XXA6, del476-501/M544V); inhibitor; 80 mV holding voltage — IC50: 137 µM.
It gave 207 µM for IC50 (Anoctamin-1 (ANO1, Homo sapiens, UniProt Q5XXA6, del476-501/R541D); inhibitor; R515D mutant at -100 mV).

Set 2
SMILES: CNCc1ccccc1-c1csc([C@@H](C)Nc2nc(C)nc3cc(OC)c(OC)cc23)c1
Effect on: cell-free assay
Method: competition with immobilised ligand
Concentration: 1 µM
It gave 100% for remaining binding (CDK3 (Homo sapiens, UniProt Q00526)).
For HCK (Homo sapiens, UniProt P08631): remaining binding read 97%.
For Ribosomal protein S6 kinase alpha-2, N-terminal kinase domain (RPS6KA2, Homo sapiens, UniProt Q15349): remaining binding read 100%.
The remaining binding was 100% (PRKCI (Homo sapiens, UniProt P41743)).
For AKT2 (Homo sapiens, UniProt P31751): remaining binding read 72%.
TEC (Homo sapiens, UniProt P42680) — remaining binding: 100%.
For CASK (Homo sapiens, UniProt O14936): remaining binding read 81%.
The remaining binding was 100% (NEK9 (Homo sapiens, UniProt Q8TD19)).
The remaining binding was 100% (RIOK1 (Homo sapiens, UniProt Q9BRS2)).
For WNK4 (Homo sapiens, UniProt Q96J92): remaining binding read 100%.
CDK11A (Homo sapiens, UniProt Q9UQ88) — remaining binding: 91%.
GSK3A (Homo sapiens, UniProt P49840) — remaining binding: 100%.
For MET (Homo sapiens, UniProt P08581, M1250T): remaining binding read 79%.
The remaining binding was 99% (NEK5 (Homo sapiens, UniProt Q6P3R8)).
The remaining binding was 82% (CILK1 (Homo sapiens, UniProt Q9UPZ9)).

Set 3
Structure (SMILES): NC(N)=NC(=O)c1nc(Cl)c(N2CCCCCC2)nc1N
Effect on: β-arrestin recruitment
Mode: agonist
Method: PRESTO-Tango
Concentration: 10 µM
Reference: untreated
For C3AR1 (Homo sapiens, UniProt Q16581): “fold over basal” read 0.78.
For MRGPRD (Homo sapiens, UniProt Q8TDS7): “fold over basal” read 0.96.
The “fold over basal” was 0.47 (Melatonin-related receptor (GPR50, Homo sapiens, UniProt Q13585)).
S1PR1 (Homo sapiens, UniProt P21453) — “fold over basal”: 1.19.
For HCAR2 (Homo sapiens, UniProt Q8TDS4): “fold over basal” read 0.79 fold.
For HRH4 (Homo sapiens, UniProt Q9H3N8): “fold over basal” read 0.95 fold.
The “fold over basal” was 1.06 (CXCR3 (Homo sapiens, UniProt P49682)).
For HRH1 (Homo sapiens, UniProt P35367): “fold over basal” read 1.22 fold.
C5AR2 (Homo sapiens, UniProt Q9P296) — “fold over basal”: 1.23.
GPR183 (Homo sapiens, UniProt P32249) — “fold over basal”: 0.85.
For GRM7 (Homo sapiens, UniProt Q14831): “fold over basal” read 1.14 fold.
The “fold over basal” was 1.03 (Adhesion G protein-coupled receptor L4 (ADGRL4, Homo sapiens, UniProt Q9HBW9)).
For F2RL3 (Homo sapiens, UniProt Q96RI0): “fold over basal” read 0.41 fold.
The “fold over basal” was 0.52 (GPR68 (Homo sapiens, UniProt Q15743)).
Probable G-protein coupled receptor 156 (GPR156, Homo sapiens, UniProt Q8NFN8) — “fold over basal”: 1.08.
ADORA2A (Homo sapiens, UniProt P29274) — “fold over basal”: 0.74.
It gave 0.74 for “fold over basal” (OXER1 (Homo sapiens, UniProt Q8TDS5)).
The “fold over basal” was 0.78 fold (Trace amine-associated receptor 8 (TAAR8, Homo sapiens, UniProt Q969N4)).

Set 4
SMILES: CC(C)S(=O)(=O)c1ccc2nccc(Nc3ccc4sc(C5CCCC5)nc4c3)c2c1.Cl
Concentration: 1 µM
The remaining activity was 101% (CLK4 (Homo sapiens, UniProt Q9HAZ1); kinase activity, inhibitor).
For PIM2 (Homo sapiens, UniProt Q9P1W9); kinase activity, inhibitor: remaining activity read 95%.
It gave 103% for remaining activity (SGK3 (Homo sapiens, UniProt Q96BR1); kinase activity, inhibitor).
STK24 (Homo sapiens, UniProt Q9Y6E0); kinase activity, inhibitor — remaining activity: 118%.
It gave 109% for remaining activity (MAPK11 (Homo sapiens, UniProt Q15759); kinase activity, inhibitor).
The remaining activity was 110% (STK25 (Homo sapiens, UniProt O00506); kinase activity, inhibitor).
It gave 104% for remaining activity (MAP3K3 (Homo sapiens, UniProt Q99759); kinase activity, inhibitor).
The remaining activity was 100% and 121% (MAP4K4 (Homo sapiens, UniProt O95819); kinase activity, inhibitor).
PHKG2 (Homo sapiens, UniProt P15735); kinase activity, inhibitor — remaining activity: 91%.
The remaining activity was 106% (ARAF (Homo sapiens, UniProt P10398); kinase activity, inhibitor).
The remaining activity was 95% (VRK2 (Homo sapiens, UniProt Q86Y07); kinase activity, inhibitor).
It gave 103% for remaining activity (ZAP70 (Homo sapiens, UniProt P43403); kinase activity, inhibitor).
It gave 81% for remaining activity (FLT4 (Homo sapiens, UniProt P35916); kinase activity, inhibitor).
MLCK(h) (human) — remaining activity: 94% and 96%.

Some of these lines once more (set 1):
The IC50 was 18.1 µM (Anoctamin-1 (ANO1, Homo sapiens, UniProt Q5XXA6, del476-501); membrane voltage 20 mV, with: 300 nM Ca2+).
It gave 56.9 µM for IC50 (Anoctamin-1 (ANO1, Homo sapiens, UniProt Q5XXA6, del476-501/E649D); inhibitor; E623D mutant at 100 mV).
It gave 25.4 µM for IC50 (Anoctamin-1 (ANO1, Homo sapiens, UniProt Q5XXA6, del476-501/F623A); membrane voltage 100 mV).
It gave 99 µM for IC50 (Anoctamin-1 (ANO1, Homo sapiens, UniProt Q5XXA6, del476-501/M544A); inhibitor; mutant M518A).
It gave 18.9 µM for IC50 (ANO1 del476-501/F807A; membrane voltage 40 mV).
